Results collected from several papers.
Every numbered part comes from another study and shows a few of its results, in no order.

Set 1
Target: Histone acetyltransferase KAT6A, winged helix 2, GST fusion (KAT6A, Homo sapiens, UniProt Q92794, residues 85-181)
Technique: protein binding microarray
Molecule type: double-stranded DNA, one strand shown
Sample: in vitro
Concentration: not given
Setting: 8-mer, flanks averaged, mean of 2 arrays, mostly near background
Reference: not given
Reading: higher = stronger binding
Residues (chain): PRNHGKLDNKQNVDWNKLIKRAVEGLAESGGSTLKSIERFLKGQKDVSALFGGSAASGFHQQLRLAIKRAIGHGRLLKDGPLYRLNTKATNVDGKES
| Oligonucleotide | E-score |
| --- | --- |
| CCAGAGGG | 0.06 |
| AGTAACTC | -0.0156 |
| TAATCCAA | -0.0161 |
| AAAGACCA | -0.14 |
| CTGCTAAA | 0.151 |
| CTGATATC | 0.0846 |
| ACAACGCC | 0.0135 |
| AACGCCCG | 0.138 |
| TAATGGAA | 0.0367 |
| AGTACGGG | -0.0998 |
| ATTAAGAC | -0.0523 |
| GTTCCTAA | -0.018 |
| CTTACTTA | -0.232 |
| ACGGGGAA | -0.0914 |
| ATCGAGGC | 0.0863 |
| AGTCAACA | -0.139 |
| CGGTCGTA | -0.0746 |
| AATGTTGC | -0.00349 |
| AATGCCGC | 0.204 |
| CTTAAACA | -0.0119 |
| ACAGCACG | 0.0702 |
| AGAACGAT | 0.0838 |
| TCGAATCA | -0.0698 |
| GTTGTGAA | -0.0993 |
| ACTAATGC | 0.111 |

Set 2
Target: Interferon regulatory factor 5, full length, phosphomimetic (IRF5, Homo sapiens, UniProt Q13568-2, residues 1-514, S451D/S453D/S456D/S462D)
Technique: protein-binding microarray
Molecule type: double-stranded DNA, one strand shown
Sample: in vitro
Concentration: 940 nM top
Setting: 60-bp whole probe
With: salmon DNA 0.4 mg/ml
Reference: random background probes
Reading: higher = stronger binding
Shared flanks, not repeated: GCCTAGCAC … GTCTTGATTCGCTTGACGCTGCTG
| Oligonucleotide | fitted relative affinity [z-score] |
| --- | --- |
| TTAGAACTGGGGATTGGATTAGTGCTA | 0.146 |
| ACTCAGTAACATTATTGTAGGTGCTAG | -0.158 |
| TTAGGTTCCTGTTTCGGTTAGTGCTAG | 5.26 |
| TTAGGTAGCCTTCTCCTTTAGTGCTAG | -0.353 |
| GACGGCTCCCTTTTCCTGACGTGCTAG | 0.118 |
| TTCGGTATCGGGACTGGGTTAGTGCTA | 3.97 |
| GTAGGACTGGACACTGGGTTAGTGCTA | -0.124 |
| TACTTTCTACTTCTCTTTTTGTGCTAG | 4.44 |
| TTAGGTATCGGCTTCGGTTAGTGCTAG | 5.37 |
| TTAGGTTTCGGTTCCGGTTTGTGCTAG | 15.2 |
| TCAGTTTTGTTTTTCATACTGTGCTAG | 2.14 |
| TCAATTATTGTTTCCTCACTGTGCTAG | 0.761 |
| TTAGGTATCGGGTTTCGATTAGTGCTA | 7.38 |
| CAGCTTCTAATATTCATTTTGTGCTAG | 0.763 |
| GTTTGTCCCTATTTAAGATAGTGCTAG | 0.775 |
| GACGATATCGGCACTGGAGACGTGCTA | -0.25 |
| TTAGATTTCAGGATCGATTAGTGCTAG | 0.456 |
| TACGGTATCGGTATCGGGACGTGCTAG | 8.36 |
| TAAGAACTGGGGACTGGATTAGTGCTA | -0.018 |
| GACGGACTGGATCTCGGGACGTGCTAG | -0.632 |

Set 3
Target: RING finger protein unkempt homolog, zinc fingers 1-6, GST-SBP tag (UNK, Homo sapiens, UniProt Q9C0B0, residues 30-357)
UniProt Q9C0B0, sequence (30-357, looked up): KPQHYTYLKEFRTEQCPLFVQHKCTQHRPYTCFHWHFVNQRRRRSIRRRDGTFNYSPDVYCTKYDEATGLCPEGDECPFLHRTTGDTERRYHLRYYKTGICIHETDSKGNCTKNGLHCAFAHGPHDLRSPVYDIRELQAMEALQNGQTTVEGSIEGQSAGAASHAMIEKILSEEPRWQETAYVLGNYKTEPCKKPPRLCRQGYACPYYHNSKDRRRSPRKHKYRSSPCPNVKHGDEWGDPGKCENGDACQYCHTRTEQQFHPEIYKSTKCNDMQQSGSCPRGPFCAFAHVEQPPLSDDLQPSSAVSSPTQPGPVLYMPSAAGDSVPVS
Technique: RNA Bind-n-Seq
Molecule type: RNA
Sample: in vitro
Concentration: not given
Setting: RNA with constant flanks, human and mouse sites, ends assumed
Reference: input RNA pool
Reading: higher = stronger binding
Shared flanks, not repeated: GGGAGUUCUACAGUCCGACGAUC … CAACAGAGGAUUGAGCAUCA
| Oligonucleotide | bound/input enrichment [ratio] |
| --- | --- |
| GGUUGUUUGUUUGUUUGUUUGUUUUGCCGCCCUGGACACAUGUUUGCCUCCUCCAAGAAUUUCUGCGGGGAUUUGUAUCCCAUGCCUUCGUCUUCUCCUCCCCGUCCAACUCCCUGGAGA | 0.809 |
| UCCCUAGUGCAUACCUGUUCGCUUCUCAUUCUCUUUUGUCUCCCCUUUCCUCGCCUCUCCCUUUUCCAUGCCGUCCAUGAUCCCCACCCCAUGUGUUAAGAAGGCAGUAGCCUUUACAGG | 1.4 |
| GUUGUUCAUAUCCCAAAAACUUUUAUAGGUAACUGUUUUCAAAUAGAAAACGUUUUAUUUGGUCAAUUUGAAUGUCAUUCUAAUUAUAAAAAUGACUUACACCUUUAUCAAUUGGUUACU | 0.844 |
| UUUACGACUGAAGACAAUGGGAAAGAAAAUAAAACUCCCUCCUCUGAUGCACAGGAUAAGCAGUUUGGUACUUGGAGACUGAGAGUCACACCUGUCGAUUACCUUCUGGGAGUGGCUGAC | 0.234 |
| GCGUAUGCAGCAGAUGGUUGGCCAGCUGGGCAUCCUGACGCCGUCCCUCACCCUGCCCUUCAGCCCCUACAGUGCCUACGCCCAGGCUCUCAUGCAGCAACAGACAACAGUGUUGUCCAC | 0.145 |
| CUUAAUUCCGGAGAAAUUUAGGAAGAUGUCUUGUUAACCCUUGAUGUCUAGAGAUUGGGGGCUGGUGAAGGGGGUUUGGCUUCAAUGACUGGAUAAUGAUAUCUUUCAUGAGAGAGAUUA | 0.863 |
| UUCUUCACCCGUAACCAUCUGCCUGUACCUAACCUGGACCCACACACCUAUCGCUUACAUGUAGUAGGGGCACCUGGAGGUCAGUCACUGUCUCUGUCCUUGGAUGAUUUGCAUAAGUUU | 0.244 |
| GACCUGUCUUCUCUUGUAUCAGCCAGGGACAGAGAAUCACAAGGACAUCUCCAUUGAGAAGCAGAAGGGCCUGGGAAGCCUCCAUUGGGGAUGUGUCUAUGAGGGAGUGUCAGCCACUCC | 0.395 |
| AAGCAAUGUGGGAAAACUUUCAAUUGGCCCAUAUCUUUACGAAAACAUAUGAGAACACAUACUAGAGAGAAACCCUAUGAAUGUAAGCAGUGUGGGAAAGCCUUCAGCUUGUCUGCUUGC | 0.289 |
| AGACAAUUAAGAGAUGCUCAGCAGGAUGCAAGAGAUAAAAUGGAGGAUAUCGAACGCCAAGUUAGAGAAUUGAAAACAAAAAUUUCAGCUAUGAAAGAAGAAAAAGAACAGCUUAGUGCU | 11.6 |
| GACAGAACAGAGAUUUGUGUGCUCAUCUUAAGAGCCAGAGCCAUAUAAGCAUCUUGGGAAAGCAAGUUUGAACCAGCUGCUGGUGUAAUGUACAGUUAUAUUUGUCUAUAAAUGGAGCUG | 0.373 |

Set 4
Target: Ras GTPase-activating protein-binding protein 1, full length (G3BP1, Homo sapiens, UniProt Q13283)
UniProt Q13283, sequence (whole entry, looked up): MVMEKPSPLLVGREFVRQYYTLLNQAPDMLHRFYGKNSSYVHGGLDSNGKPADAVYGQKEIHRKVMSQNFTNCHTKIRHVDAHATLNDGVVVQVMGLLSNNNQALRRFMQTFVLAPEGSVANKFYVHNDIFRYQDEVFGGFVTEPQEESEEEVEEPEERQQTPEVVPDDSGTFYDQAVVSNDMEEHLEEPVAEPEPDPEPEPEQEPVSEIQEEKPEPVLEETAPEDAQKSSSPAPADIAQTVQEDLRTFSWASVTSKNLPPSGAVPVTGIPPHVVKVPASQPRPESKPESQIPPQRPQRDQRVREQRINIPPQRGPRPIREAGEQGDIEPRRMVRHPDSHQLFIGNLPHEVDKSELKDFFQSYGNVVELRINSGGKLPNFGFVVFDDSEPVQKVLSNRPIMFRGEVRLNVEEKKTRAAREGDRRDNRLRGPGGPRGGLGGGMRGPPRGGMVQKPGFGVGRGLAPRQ
Technique: RNA Bind-n-Seq
Molecule type: RNA
Sample: in vitro
Concentration: 200 nM
Setting: whole 134-nt RNA, ends assumed
With: 150 mM LiCl
Reference: input library
Reading: higher = stronger binding
All molecules: 7-deaza-guanosine replaces G
Shared flanks, not repeated: GGGAGUUCUACAGUCCGACGAUC … UGGAAUUCUCGGGUGUCAAGG
| Oligonucleotide | log2 enrichment |
| --- | --- |
| UAACUUUAGAGGAGGAUCUGAUGGAUAUGGCAGUGGACGUGGAUUUGGGGAUGGCUAUAAUGGGUAUGGAGGAGGACCUGGAGGUGGCAG | -0.0581 |
| ACCAUGCAGGUGGGCAUCUUUGGGAAGUGGGGCAAGGGGGGGAUAGGGAGGGGGGUAACACUUUGGGAACAGGUGGUCCCAGGUCGAUUC | 0.215 |
| UUCCUCAAGUCCUGUGCUACACAUCGUAUGUACCGAAUCGUGUGUGUGUGUAAAGUAUUAUGUUACGCCGUUCGGAUCUGCACUUCCAGC | 0.534 |
| CAAGUCCUGUGCUACACAUCGUAUGUACCGAAUCGGGUUUGGGUGGGAAAAAGGGAAAGUAUUAUGUUACGCCGUUCGGAUCUGCACUUC | -0.00193 |
| AGUCCUGUGCUACACAUCGUAUGUACCGAAUCGGAAAAAAAGGAAAAAGGUUUUUGGAAAGUAUUAUGUUACGCCGUUCGGAUCUGCACU | -2.41 |
| AGUCCUGUGCUACACAUCGUAUGUACCGAAUCGGGCCCCGGGGCCCCGGGCCCCGGGAAAGUAUUAUGUUACGCCGUUCGGAUCUGCACU | -2.07 |
| AAGUCCUGUGCUACACAUCGUAUGUACCGAAUCGGGGAAAAGGGAAAAGGAAAAGGAAAGUAUUAUGUUACGCCGUUCGGAUCUGCACUU | -0.253 |
| UGGGAGGUGGAUUUUGUUUAUUUUUUUAGCUCAUUUCCAGGGGUGGGAAUUUUGUUUUAAUAUGUGUCAUGAAUAAAGUUGUUUUUGAAA | -0.391 |

Some of these lines once more (set 1):
| Oligonucleotide | E-score |
| --- | --- |
| AAAGACCA | -0.14 |
| CTGCTAAA | 0.151 |
| CTGATATC | 0.0846 |
| ACAACGCC | 0.0135 |
| AACGCCCG | 0.138 |
| TAATGGAA | 0.0367 |
| AGTACGGG | -0.0998 |
| ATTAAGAC | -0.0523 |
| GTTCCTAA | -0.018 |
| CTTACTTA | -0.232 |
